Assay results gathered from unrelated publications.
Lines come from different studies, so protocols differ. “And” joins repeats or separate records; there may be more than shown. ± gives the spread as reported.
hdac6 CD2 catalytic domain: Histone deacetylase 6, CD2 catalytic domain (hdac6, Danio rerio, UniProt F8W4B7)
Squalene synthase ERG9: Squalene synthase ERG9 (Saccharomyces cerevisiae, UniProt P29704)
SUMO-activating enzyme subunit 2 with SAE1: SUMO-activating enzyme subunit 2, with SAE1 (Homo sapiens, UniProt Q9UBT2)
KCNJ13 M125R: Inward rectifier potassium channel 13 (KCNJ13, Homo sapiens, UniProt O60928, M125R)
CDPK1: Calmodulin-domain protein kinase 1 (CDPK1, Toxoplasma gondii, UniProt Q9BJF5)

Sequences of proteins named here, by UniProt entry; tags and fusion partners are left off. Residues count along the entry.
UniProt O60928, whole entry M125R: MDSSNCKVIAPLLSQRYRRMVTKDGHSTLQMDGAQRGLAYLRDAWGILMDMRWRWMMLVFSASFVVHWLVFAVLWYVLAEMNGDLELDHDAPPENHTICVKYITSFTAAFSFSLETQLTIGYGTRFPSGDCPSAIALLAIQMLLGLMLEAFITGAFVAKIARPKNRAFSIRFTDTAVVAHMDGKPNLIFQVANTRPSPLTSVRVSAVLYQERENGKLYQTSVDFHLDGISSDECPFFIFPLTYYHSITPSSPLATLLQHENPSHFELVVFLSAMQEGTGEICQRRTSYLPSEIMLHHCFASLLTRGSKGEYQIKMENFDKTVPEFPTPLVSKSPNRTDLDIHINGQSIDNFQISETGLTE
UniProt C4Z6Z2, 1-611: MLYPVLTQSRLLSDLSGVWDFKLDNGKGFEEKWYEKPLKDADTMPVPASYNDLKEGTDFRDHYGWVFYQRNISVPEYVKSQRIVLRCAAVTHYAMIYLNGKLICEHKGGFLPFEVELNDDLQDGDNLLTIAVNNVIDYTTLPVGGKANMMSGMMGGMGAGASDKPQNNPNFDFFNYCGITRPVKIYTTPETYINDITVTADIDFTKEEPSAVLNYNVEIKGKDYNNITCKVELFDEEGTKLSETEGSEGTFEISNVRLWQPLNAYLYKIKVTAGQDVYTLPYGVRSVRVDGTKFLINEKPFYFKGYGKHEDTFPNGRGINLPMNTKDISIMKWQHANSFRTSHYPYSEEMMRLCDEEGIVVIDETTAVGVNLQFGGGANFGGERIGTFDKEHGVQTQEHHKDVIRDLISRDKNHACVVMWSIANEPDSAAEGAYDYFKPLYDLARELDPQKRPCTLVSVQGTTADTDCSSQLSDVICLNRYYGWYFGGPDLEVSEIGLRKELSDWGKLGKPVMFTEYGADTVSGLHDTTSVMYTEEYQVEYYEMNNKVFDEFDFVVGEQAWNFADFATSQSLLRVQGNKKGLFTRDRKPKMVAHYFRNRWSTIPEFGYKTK
UniProt Q8IBS5, whole entry: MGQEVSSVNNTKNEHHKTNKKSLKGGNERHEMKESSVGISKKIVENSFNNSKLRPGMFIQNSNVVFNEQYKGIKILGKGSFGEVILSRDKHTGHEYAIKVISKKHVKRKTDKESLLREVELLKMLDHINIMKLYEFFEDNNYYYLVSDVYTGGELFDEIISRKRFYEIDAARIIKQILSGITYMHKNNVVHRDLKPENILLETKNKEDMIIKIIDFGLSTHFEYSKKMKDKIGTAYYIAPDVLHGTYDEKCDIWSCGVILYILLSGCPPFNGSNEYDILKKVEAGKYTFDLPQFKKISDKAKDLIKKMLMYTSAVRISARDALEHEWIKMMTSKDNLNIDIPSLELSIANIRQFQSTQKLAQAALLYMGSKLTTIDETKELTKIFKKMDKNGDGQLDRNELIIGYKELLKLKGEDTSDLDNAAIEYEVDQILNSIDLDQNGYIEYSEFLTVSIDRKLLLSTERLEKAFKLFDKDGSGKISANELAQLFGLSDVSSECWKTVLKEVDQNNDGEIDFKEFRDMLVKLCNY
UniProt Q8E0N2, whole entry: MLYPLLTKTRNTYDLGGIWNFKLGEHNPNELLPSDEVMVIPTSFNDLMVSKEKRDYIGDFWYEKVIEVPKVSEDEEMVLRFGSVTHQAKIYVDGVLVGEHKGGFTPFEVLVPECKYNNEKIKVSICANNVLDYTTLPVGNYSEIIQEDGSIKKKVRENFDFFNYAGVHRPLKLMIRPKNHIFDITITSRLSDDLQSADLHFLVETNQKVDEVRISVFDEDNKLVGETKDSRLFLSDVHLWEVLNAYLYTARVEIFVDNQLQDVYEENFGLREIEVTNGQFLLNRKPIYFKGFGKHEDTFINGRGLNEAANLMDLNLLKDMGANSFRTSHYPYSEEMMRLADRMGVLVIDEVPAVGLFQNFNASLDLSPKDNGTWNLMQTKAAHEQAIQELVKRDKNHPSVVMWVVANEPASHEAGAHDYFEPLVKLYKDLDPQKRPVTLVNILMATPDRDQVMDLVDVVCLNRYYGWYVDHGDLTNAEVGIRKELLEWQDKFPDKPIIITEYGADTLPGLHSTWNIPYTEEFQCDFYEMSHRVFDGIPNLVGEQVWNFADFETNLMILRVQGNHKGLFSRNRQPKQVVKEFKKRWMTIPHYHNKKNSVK
UniProt O15455, whole entry, looked up: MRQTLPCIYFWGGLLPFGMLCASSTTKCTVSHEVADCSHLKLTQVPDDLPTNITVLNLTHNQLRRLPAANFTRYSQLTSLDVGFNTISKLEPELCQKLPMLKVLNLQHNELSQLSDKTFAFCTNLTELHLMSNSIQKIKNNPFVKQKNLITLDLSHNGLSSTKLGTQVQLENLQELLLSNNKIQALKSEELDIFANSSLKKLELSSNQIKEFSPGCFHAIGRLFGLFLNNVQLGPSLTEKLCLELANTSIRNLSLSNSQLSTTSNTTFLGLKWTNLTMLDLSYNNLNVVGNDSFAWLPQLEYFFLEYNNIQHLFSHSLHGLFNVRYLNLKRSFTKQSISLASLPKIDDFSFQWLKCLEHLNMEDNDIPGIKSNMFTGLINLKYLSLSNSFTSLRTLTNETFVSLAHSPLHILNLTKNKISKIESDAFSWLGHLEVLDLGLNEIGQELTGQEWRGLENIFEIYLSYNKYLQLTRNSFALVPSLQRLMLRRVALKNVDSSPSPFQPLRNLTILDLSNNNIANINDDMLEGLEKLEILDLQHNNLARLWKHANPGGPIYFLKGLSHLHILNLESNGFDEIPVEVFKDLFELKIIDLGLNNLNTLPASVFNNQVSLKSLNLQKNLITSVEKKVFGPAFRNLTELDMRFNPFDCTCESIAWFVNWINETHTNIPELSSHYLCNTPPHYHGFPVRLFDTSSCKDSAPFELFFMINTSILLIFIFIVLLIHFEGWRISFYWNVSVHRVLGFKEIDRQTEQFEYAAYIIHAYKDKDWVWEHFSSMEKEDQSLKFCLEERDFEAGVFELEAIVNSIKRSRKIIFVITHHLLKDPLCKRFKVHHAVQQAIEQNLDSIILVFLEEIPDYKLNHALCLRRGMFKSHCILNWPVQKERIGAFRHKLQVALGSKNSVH
UniProt P62139, whole entry: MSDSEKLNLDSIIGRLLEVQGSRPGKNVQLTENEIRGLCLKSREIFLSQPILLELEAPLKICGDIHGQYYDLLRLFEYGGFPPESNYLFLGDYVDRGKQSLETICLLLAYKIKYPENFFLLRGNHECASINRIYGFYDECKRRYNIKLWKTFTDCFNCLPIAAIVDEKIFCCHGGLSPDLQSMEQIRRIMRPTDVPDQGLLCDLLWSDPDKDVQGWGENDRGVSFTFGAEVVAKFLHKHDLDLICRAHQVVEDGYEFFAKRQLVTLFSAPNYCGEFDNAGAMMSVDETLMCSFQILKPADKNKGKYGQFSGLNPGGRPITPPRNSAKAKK
UniProt T1WGN1, 37-843 limits assumed: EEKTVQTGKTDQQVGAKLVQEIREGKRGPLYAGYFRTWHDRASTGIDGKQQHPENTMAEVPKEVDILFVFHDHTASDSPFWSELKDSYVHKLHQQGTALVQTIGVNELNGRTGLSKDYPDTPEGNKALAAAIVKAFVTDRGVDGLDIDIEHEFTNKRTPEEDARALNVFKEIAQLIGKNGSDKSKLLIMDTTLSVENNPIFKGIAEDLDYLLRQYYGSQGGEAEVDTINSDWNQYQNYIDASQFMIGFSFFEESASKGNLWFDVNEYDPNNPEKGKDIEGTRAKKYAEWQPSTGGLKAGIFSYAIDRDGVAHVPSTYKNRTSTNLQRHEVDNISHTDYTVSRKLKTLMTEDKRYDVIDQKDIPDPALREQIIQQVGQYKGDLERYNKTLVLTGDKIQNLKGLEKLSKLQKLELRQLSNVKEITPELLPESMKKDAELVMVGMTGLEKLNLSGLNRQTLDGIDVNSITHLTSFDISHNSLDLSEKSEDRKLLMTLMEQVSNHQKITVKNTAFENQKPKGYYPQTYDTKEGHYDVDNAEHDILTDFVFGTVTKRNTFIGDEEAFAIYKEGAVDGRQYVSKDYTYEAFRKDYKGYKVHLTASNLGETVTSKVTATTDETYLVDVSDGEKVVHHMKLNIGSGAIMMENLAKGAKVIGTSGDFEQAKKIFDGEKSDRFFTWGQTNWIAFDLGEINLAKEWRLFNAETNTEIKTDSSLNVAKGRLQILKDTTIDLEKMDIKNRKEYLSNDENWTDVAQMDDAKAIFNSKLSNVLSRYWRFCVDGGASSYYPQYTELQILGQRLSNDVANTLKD
UniProt P03211, 459-607 limits assumed: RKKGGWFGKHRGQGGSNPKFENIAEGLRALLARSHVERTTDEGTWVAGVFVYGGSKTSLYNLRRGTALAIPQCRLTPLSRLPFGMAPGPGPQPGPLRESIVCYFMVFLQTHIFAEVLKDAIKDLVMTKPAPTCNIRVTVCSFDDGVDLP
UniProt Q00959, 23-1464 limits assumed: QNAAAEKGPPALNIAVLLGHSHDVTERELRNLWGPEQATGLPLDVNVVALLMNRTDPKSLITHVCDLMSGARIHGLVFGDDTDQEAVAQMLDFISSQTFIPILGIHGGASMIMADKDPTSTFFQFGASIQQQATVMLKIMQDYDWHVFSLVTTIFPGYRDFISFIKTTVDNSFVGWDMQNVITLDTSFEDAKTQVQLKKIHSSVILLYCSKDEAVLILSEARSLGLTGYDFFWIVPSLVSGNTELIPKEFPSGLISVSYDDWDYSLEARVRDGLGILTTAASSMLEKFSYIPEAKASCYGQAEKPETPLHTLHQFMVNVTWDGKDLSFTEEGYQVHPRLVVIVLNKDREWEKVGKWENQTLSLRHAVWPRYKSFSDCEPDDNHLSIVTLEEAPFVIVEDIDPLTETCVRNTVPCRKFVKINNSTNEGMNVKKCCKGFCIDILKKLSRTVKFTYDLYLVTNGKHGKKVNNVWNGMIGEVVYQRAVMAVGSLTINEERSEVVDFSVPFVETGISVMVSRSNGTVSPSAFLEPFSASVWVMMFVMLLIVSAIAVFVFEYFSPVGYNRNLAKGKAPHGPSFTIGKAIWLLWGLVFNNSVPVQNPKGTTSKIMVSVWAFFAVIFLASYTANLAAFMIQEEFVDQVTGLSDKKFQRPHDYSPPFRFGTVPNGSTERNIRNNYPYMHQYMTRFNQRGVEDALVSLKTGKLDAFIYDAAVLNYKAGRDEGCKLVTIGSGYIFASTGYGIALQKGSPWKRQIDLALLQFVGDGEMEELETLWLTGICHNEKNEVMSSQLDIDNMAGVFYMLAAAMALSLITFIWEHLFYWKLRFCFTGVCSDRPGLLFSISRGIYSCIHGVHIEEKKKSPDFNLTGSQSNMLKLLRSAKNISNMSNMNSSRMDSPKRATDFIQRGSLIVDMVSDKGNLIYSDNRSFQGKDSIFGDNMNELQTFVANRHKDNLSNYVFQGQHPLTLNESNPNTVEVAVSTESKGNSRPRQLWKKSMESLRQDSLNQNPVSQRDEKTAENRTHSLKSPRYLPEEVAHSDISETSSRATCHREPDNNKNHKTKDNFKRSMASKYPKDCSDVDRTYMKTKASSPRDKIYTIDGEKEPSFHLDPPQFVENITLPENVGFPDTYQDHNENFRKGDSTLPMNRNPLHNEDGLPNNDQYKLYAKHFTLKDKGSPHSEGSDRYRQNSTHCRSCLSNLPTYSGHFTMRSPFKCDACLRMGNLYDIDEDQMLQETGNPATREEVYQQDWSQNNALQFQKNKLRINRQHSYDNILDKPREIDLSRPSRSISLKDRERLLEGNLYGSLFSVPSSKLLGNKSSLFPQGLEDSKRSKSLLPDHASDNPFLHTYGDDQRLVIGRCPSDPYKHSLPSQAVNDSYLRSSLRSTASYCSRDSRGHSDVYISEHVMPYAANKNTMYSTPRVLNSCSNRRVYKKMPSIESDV
UniProt Q2FV99, 60-206 limits assumed: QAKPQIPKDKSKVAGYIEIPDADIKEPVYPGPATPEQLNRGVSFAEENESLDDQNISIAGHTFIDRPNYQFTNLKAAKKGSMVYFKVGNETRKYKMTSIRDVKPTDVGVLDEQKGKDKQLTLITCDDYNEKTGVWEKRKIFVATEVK

CC(C)Oc1c(NC(=O)c2ccc(NC(=O)[C@H](CC(N)=O)NC(=O)c3cc(F)c(/N=N/c4c(Cl)cc(C#N)cc4Cl)c(F)c3)cc2)ccc(C(=O)N/N=C/c2c(F)cc(C(=O)O)cc2F)c1O — IC50 (DNA gyrase (gyrA/gyrB, Escherichia coli, UniProt P0AES4+P0AES6); DNA supercoiling, inhibitor; 30 min, 37 °C, dark-adapted state): > 25 µM
O=C(NO)c1ccccc1F — IC50 (hdac6 CD2 catalytic domain; enzyme activity, inhibitor, fluorogenic; 30 min, with: Ac-RHK(Ac)K(Ac)-AMC): > 20 µM
C=C(CC/C=C(\C)CCC=C(C)C)CN1[C@@H](COP(=O)(O)CP(=O)(O)O)[C@]1(C)CC/C=C(\C)CCC=C(C)C (relative stereo) — IC50 (Squalene synthase ERG9; enzyme activity, inhibitor; pH 7.2, with: 1.5 mM pyrophosphate, 100 µM [3H]FPP): 17.4 ± 5.3 µM
C=CC[C@H](Nc1ccc(OC)cc1)C12C=CC(O1)C(C(=O)OC)=C2C(=O)OC (stereo partly drawn) — IC50 (SUMO-activating enzyme subunit 2 with SAE1; SUMOylation, inhibitor, AlphaScreen; with: SUMO1-RanGAP1 conjugation): 17.6 µM
O=C(NC1CCN(Cc2cc(Cl)c3cccnc3c2O)CC1)c1ccc2ccccc2c1 — IC50 (KCNJ13 M125R; ion current, inhibitor, thallium flux; T-REx-HEK293): 12.3 µM
C(=C\c1ccccc1)/CN1CCN(C(c2ccccc2)c2ccccc2)CC1 — IC50 (mRNA cap guanine-N(7) methyltransferase (RNMT, Homo sapiens, UniProt O43148); enzyme activity, inhibitor): 16.8 ± 2 µM
O=C(O)CC1(n2cnnn2)CCCCC1 — IC50 (Metallo-beta-lactamase type 2 (Serratia marcescens, UniProt P52699); 10 min preincubation, with: FC5 fluorogenic substrate): 398 µM
c1ccc(-c2ccc3c(n2)sc2c(N4CCNCC4)ncnc23)cc1 — IC50 (Beta-glucuronidase (Lachnospira eligens, UniProt C4Z6Z2); enzyme activity, inhibitor): 0.27 ± 0.05 µM
CCOc1ccc2cc(-c3nn(CC4CCNCC4)c4ncnc(N)c34)ccc2n1 — IC50 (Calcium-dependent protein kinase 4 (Plasmodium falciparum, UniProt Q8IBS5); kinase activity, inhibitor, Kinase-Glo luminescence; wild-type enzyme, with: ATP 10 µM, CaCl2 2 mM): 0.002 µM
NC(=O)c1ccc(-c2ncc(OCC3CCNCC3)nc2-c2ccc(-c3ccoc3)cc2)cc1 — IC50 (Genome polyprotein, NS2B-NS3 protease (pol, Dengue virus type 3, UniProt Q6YMS4); enzyme activity, inhibitor; dengue virus type 3 NS2B-NS3 protease): 0.93 ± 0.02 µM
NC(=O)c1cc(Sc2ccc(O)cc2)nc2ccccc12 — IC50 (CDPK1; kinase activity, inhibitor, ELISA; with: syntide-2 substrate, ATP 25 µM): 1.6 µM
CC(C)(C)c1ccc(C(=O)Nc2cc(Cl)c(Cl)cc2C(=O)O)cc1 — IC50 (Phosphotransferase (Trypanosoma brucei, UniProt Q38C42); hexokinase activity, inhibitor): 1.36 ± 0.06 µM
CC(C)COC(=O)NC1CCN(Cc2cc(Cl)c3cccnc3c2O)CC1 — IC50 (KCNJ13 M125R; ion current, inhibitor, thallium flux; T-REx-HEK293): 4.1 µM
c1nc(N2CCNCC2)c2sc3nc(N4CCOCC4)ccc3c2n1 — IC50 (Beta-glucuronidase (Streptococcus agalactiae serotype V, UniProt Q8E0N2); enzyme activity, inhibitor): 0.73 ± 0.07 µM
Cc1c2ccncc2c(C)c2c1[nH]c1ccc(C(=O)NC(C)C)cc12 — IC50 (Toll-like receptor 3 (Homo sapiens, UniProt O15455); reporter gene, SEAP reporter; HEK-Blue hTLR3; with: poly(I:C)): 0.09 ± 0.01 µM
O=C(NO)c1c(F)cccc1F — IC50 (hdac6 CD2 catalytic domain; enzyme activity, inhibitor, fluorogenic; 30 min, with: Ac-RHK(Ac)K(Ac)-AMC): > 20 µM
O=C(Oc1nsnc1N1CCCCC1)N1CCOCC1 — IC50 (Immunoglobulin A1 protease autotransporter (Haemophilus influenzae, UniProt P44969); IgA1 cleavage, inhibitor, sandwich ELISA; 1 h preincubation, with: 5 nM human IgA1): 3.7 ± 0.3 µM
COc1cccc(-c2cc(NC(=O)Nc3ccc(C(F)(F)F)cc3)ccc2OC)c1 — IC50 (Heat shock protein HSP 90-alpha, with Aha1 (HSP90AA1, Homo sapiens, UniProt P07900); Hsp90-Aha1 interaction, inhibitor, AlphaScreen): 2.83 ± 1.59 µM
COc1cc(C)cc(Sc2cc(C(=O)N3Cc4ccccc4C3)ccc2O)c1 — IC50 (Heat shock protein HSP 90-beta (HSP90AB1, Homo sapiens, UniProt P08238); binding, fluorescence polarization; with: FITC-geldanamycin tracer): > 50 µM
OCCNc1nc(N2CCNCC2)c2sc3nc(-c4ccccc4)ccc3c2n1 — IC50 (Beta-glucuronidase (Streptococcus agalactiae serotype V, UniProt Q8E0N2); enzyme activity, inhibitor): 1.3 ± 0.2 µM
CO[C@H]1[C@H](O[C@H]([C@H]2O[C@@H](n3ccc(=O)[nH]c3=O)[C@H](O)[C@@H]2O)[C@H](NCCCNC(=O)[C@@H](NC(=O)[C@@H](NC(=O)N[C@H](C(=O)O)C(C)C)[C@@H]2CCNC(=N)N2)[C@@H](OC(=O)CCCCCCCCCCCCNC(=N)N)C(C)C)C(N)=O)O[C@H](CN)[C@H]1O — IC50 (MurX (Mycolicibacterium smegmatis); enzyme activity, inhibitor; P-60 membrane fraction): 0.035 ± 0.003 µM
CC1=C([C@H](O)CC(=O)O[C@H](C)[C@@H](C)[C@H](O)CC(=O)[C@@H](C)[C@@H](O)CCCCCOC(=O)CC(C)C)C(=O)OC1=O — IC50 (Serine/threonine-protein phosphatase PP1-alpha catalytic subunit (PPP1CA, Oryctolagus cuniculus, UniProt P62139); enzyme activity, inhibitor, malachite green; 30 °C, with: phosphopeptide KRpTIRR 40 µM): 0.1 ± 0.01 µM
c1cc2c(nc1N1CCOCC1)sc1c(N3CCNCC3)nnnc12 — IC50 (Beta-glucuronidase (Streptococcus agalactiae serotype V, UniProt Q8E0N2); enzyme activity, inhibitor): 1.04 ± 0.08 µM
O=C(C=C(O)c1cc(Cc2ccc(F)cc2F)cn(Cc2ccccc2F)c1=O)C(=O)N[C@H]1CCC[C@@H]1O (relative stereo) — IC50 (Gag-Pol polyprotein, integrase (gag-pol, Human immunodeficiency virus type 1 group M subtype B, UniProt P04585); integrase strand transfer, inhibitor): 0.048 µM
CC(=O)N[C@H]1[C@H](O[C@@H]2[C@@H](OC[C@H]3O[C@@H](O[C@H]4[C@H](O)[C@H]5N=C(C)S[C@H]5O[C@@H]4CO)[C@@H](O)[C@@H](O[C@H]4O[C@H](CO)[C@@H](O)[C@H](O)[C@@H]4O[C@@H]4O[C@H](CO)[C@@H](O[C@@H]5O[C@H](CO)[C@H](O)[C@H](O)[C@H]5O)[C@H](O)[C@H]4NC(C)=O)[C@@H]3O)O[C@H](CO)[C@@H](O)[C@@H]2O)O[C@H](CO)[C@@H](O[C@@H]2O[C@H](CO)[C@H](O)[C@H](O)[C@H]2O)[C@@H]1O — IC50 (endoS2 (Streptococcus pyogenes, UniProt T1WGN1); N-glycan hydrolysis, inhibitor, HPAEC-PAD; 10 min, pH 7.4, 30 °C, with: sialylated rituximab substrate): 0.57 µM
C=C(CC/C=C(\C)CCC=C(C)C)CN1[C@@H](COP(=O)(O)OP(=O)(O)O)[C@]1(C)CC/C=C(\C)CCC=C(C)C (relative stereo) — IC50 (Squalene synthase ERG9; enzyme activity, inhibitor; pH 7.2, with: 1.5 mM pyrophosphate, 100 µM [3H]FPP): 4 ± 0.4 µM
Nc1c(S(=O)(=O)Oc2ccccc2NC(=O)Cc2c[nH]c3ccccc23)ccc2ccccc12 — IC50 (Alkaline phosphatase, tissue-nonspecific isozyme (ALPL, Homo sapiens, UniProt P05186)): 2.86 ± 0.06 µM
NCc1ccc(-c2ncc(OCC3CCNCC3)nc2-c2ccc3[nH]ccc3c2)cc1 — IC50 (Genome polyprotein, NS2B-NS3 protease (ZIKV, UniProt A0A024B7W1); enzyme activity, inhibitor; Gly4-Ser-Gly4-linked NS2B-NS3 protease): 1.12 µM and 1.1 µM
O=C(O)c1cccc(C#Cc2ccccc2)c1-c1ccc2cc[nH]c2c1 — IC50 (Epstein-Barr nuclear antigen 1 (Epstein-Barr virus, UniProt P03211); AlphaLISA displacement; with: biotinylated probe VK-2114): 0.927 µM
Cc1ccc(S(=O)(=O)N2CCC(C)(C(=O)Nc3ccc4cc(C(=O)O)ccc4c3)CC2)c(C)c1 — IC50 (Bifunctional epoxide hydrolase 2 (EPHX2, Homo sapiens, UniProt P34913); pH 7.0, 30 °C, with: CMNPC substrate 5 µM): 3.88 µM
CN(CCCCCN(C)c1ccc(C(=N)N)cc1)c1ccc(C(=N)N)cc1 — IC50 (Grin1/Grin2a/Grin2b, MK-801 channel binding site (Rattus norvegicus, UniProt P35439+Q00959+Q00960); pH 7): 0.56 ± 0.08 µM
O=c1ccn([C@@H]2O[C@H](COP(=O)(O)OP(=O)(O)OP(=O)(O)O)[C@@H](O)[C@]2(F)Br)c(=O)[nH]1 — IC50 (DNA polymerase beta (POLB, Homo sapiens, UniProt P06746); polymerase activity, inhibitor; 37 °C): > 100 µM
O=c1[nH]c2sc3c(c2c(=O)n1O)CCCC3 — IC50 (Gag-Pol polyprotein, integrase (gag-pol, Human immunodeficiency virus 1, UniProt P03366); integrase strand transfer, inhibitor): 3.6 ± 0.5 µM
NC(=O)c1cc(Sc2cccc(C(F)(F)F)c2)nc2ccccc12 — IC50 (CDPK1; kinase activity, inhibitor, ELISA; with: syntide-2 substrate, ATP 25 µM): > 20 µM
NC(=O)CCOc1c(SSc2cnn(-c3ccccc3)c(=O)c2OCCC(N)=O)cnn(-c2ccccc2)c1=O — IC50 (srtA (Staphylococcus aureus, UniProt Q2FV99); inhibitor): 3.25 ± 0.34 µM
COC(=O)C1=C(C(=O)OC)C2([C@H](Cc3ccc(C)cc3)Nc3ccccc3)C=CC1O2 (stereo partly drawn) — IC50 (SUMO-activating enzyme subunit 2 with SAE1; SUMOylation, inhibitor, AlphaScreen; with: SUMO1-RanGAP1 conjugation): 2.14 µM
N=C(N)c1ccc(OCCOCCOc2ccc(C(=N)N)cc2)cc1 — IC50 (Glutamate NMDA receptor; Grin1/Grin2b, ifenprodil binding site (Grin1/Grin2b, Rattus norvegicus, UniProt P35439+Q00960); pH 7.4): 63.8 µM
O=C(NC1CCN(Cc2cc(Cl)c3cccnc3c2O)CC1)OC1CCCCC1 — IC50 (KCNJ13 M125R; ion current, inhibitor, thallium flux; T-REx-HEK293): 4.2 µM
C=CC[C@@H](Nc1ccc(Cl)cc1)C12C=CC(O1)C(C(=O)OC)=C2C(=O)OC (stereo partly drawn) — IC50 (SUMO-activating enzyme subunit 2 with SAE1; SUMOylation, inhibitor, AlphaScreen; with: SUMO1-RanGAP1 conjugation): 3.82 µM
COc1cc(C(=O)N2CCC(Cc3ccccc3)CC2)ccc1OC(=O)N(C)C — IC50 (Cholinesterase (BCHE, Equus caballus, UniProt P81908); enzyme activity, inhibitor, Ellman): 1.6 ± 0.02 µM
O=C(COC(=O)CNC(=O)C1CCCCC1)Nc1cc(C(F)(F)F)ccc1Cl — IC50 (Cruzipain (Trypanosoma cruzi, UniProt P25779); enzyme activity, inhibitor): 0.67 µM
CNc1nc(N2CCNCC2)c2sc3nc(N4CCOCC4)ccc3c2n1 — IC50 (Beta-glucuronidase (uidA, Escherichia coli, UniProt P05804); enzyme activity, inhibitor): 0.022 ± 0.007 µM
C/C=C(\NC(=O)[C@@H](NC(=O)[C@@H](NC(=O)[C@H](C)NC(=O)C/C(C)=C/Cl)[C@@H](C)CC)[C@@H](C)O)C(=O)N[C@H]1CC[C@@H](O)N([C@@H](Cc2ccccc2)C(=O)N(C)[C@@H](Cc2ccc(O)cc2)C(=O)N[C@H](C(=O)O)C(C)C)C1=O — IC50 (Proteinase K (PROK, Engyodontium album, UniProt P06873); enzyme activity, inhibitor; 30 min, pH 7.4, 22 °C, with: Suc-Ala-Ala-Pro-Phe-AMC): > 5 µM
CC(C(=O)c1ccccc1)N1CCCCC1 (stereo not drawn) — IC50 (Sodium-dependent dopamine transporter (Slc6a3, Rattus norvegicus, UniProt P23977); dopamine uptake, inhibitor; rat caudate synaptosomes; with: [3H]dopamine 5 nM): 2.49 µM
COC(=O)C1=C(C(=O)OC)C2([C@@H](C)Nc3ccc(C)cc3)C=CC1O2 (stereo partly drawn) — IC50 (SUMO-activating enzyme subunit 2 with SAE1; SUMOylation, inhibitor, AlphaScreen; with: SUMO1-RanGAP1 conjugation): 34.7 µM
COC(=O)[C@@H](CS)N1C(=O)c2ccc(N(C)C)cc2C1=O — IC50 (Metallo-beta-lactamase type 2 (blaNDM-1, Klebsiella pneumoniae, UniProt C7C422); enzyme activity, inhibitor; with: chromacef 20 µM): 6.3 ± 0.2 µM
COc1ccccc1C(=O)NC1CCN(Cc2cc(Cl)c3cccnc3c2O)CC1 — IC50 (KCNJ13 M125R; ion current, inhibitor, thallium flux; T-REx-HEK293): 7.1 µM
O=[N+]([O-])c1ccc(N=Nc2c(S(=O)(=O)O)cc3cc(S(=O)(=O)O)ccc3c2O)c([N+](=O)[O-])c1 — IC50 (Bcl-2-related protein A1 (Mus musculus, UniProt Q07440, C113S/P104K); binding, fluorescence polarization; with: FITC-Noxa peptide): 45.8 µM

Excerpt of the above:
O=c1ccn([C@@H]2O[C@H](COP(=O)(O)OP(=O)(O)OP(=O)(O)O)[C@@H](O)[C@]2(F)Br)c(=O)[nH]1 — IC50 (DNA polymerase beta (POLB, Homo sapiens, UniProt P06746); polymerase activity, inhibitor; 37 °C): > 100 µM
O=c1[nH]c2sc3c(c2c(=O)n1O)CCCC3 — IC50 (Gag-Pol polyprotein, integrase (gag-pol, Human immunodeficiency virus 1, UniProt P03366); integrase strand transfer, inhibitor): 3.6 ± 0.5 µM
NC(=O)c1cc(Sc2cccc(C(F)(F)F)c2)nc2ccccc12 — IC50 (CDPK1; kinase activity, inhibitor, ELISA; with: syntide-2 substrate, ATP 25 µM): > 20 µM
